Measurements pooled from the literature.
Protocols differ between the studies behind these lines. “And” joins repeats or separate records; there may be more than shown. ± marks the error that the study gave.
CASP10: Caspase-10 (CASP10, Homo sapiens, UniProt Q92851)

`CC(=O)N[C@@H](CC(=O)O)C(=O)N[C@@H](CCC(=O)O)C(=O)N[C@@H](CC(C)C)C(=O)N[C@@H](CC(=O)O)C(=O)COC(=O)c1c(C)cccc1C` has a kobs/[I] of 126000 M⁻¹ s⁻¹ (CASP10; inhibitor; recombinant enzyme).
`COc1cc(-c2cn(C)c(=O)c3cnccc23)cc(OC)c1CN(C)C` gave a ΔTm of 0.9 °C (KAT2A (Homo sapiens, UniProt Q92830)).
With `CC(C)Oc1cc(Cl)ccc1CNc1cc(-c2ccccc2)nc2ncnn12` the cAMP luminescence was 23400 a.u. and 20400 a.u. and 13300 a.u. and 14800 a.u. and 22300 a.u. (GPR3 (Homo sapiens, UniProt P46089, Q215A); cAMP level, cAMP GloSensor; 1 µM; higher = more cAMP).
For `CC(=O)N[C@H](C(=O)N[C@@H](CCC(N)=O)C(=O)N[C@@H](CO)C(=O)N[C@@H](CC(=O)O)C(=O)COC(=O)c1c(C)cccc1C)C(C)(C)C`, the kinact/KI was 314000 M⁻¹ s⁻¹ (CASP10; enzyme activity, inhibitor).
`N[C@H]1CC[C@H](Nc2nccc(-c3cccnc3Oc3ccc(NC(=O)NC4CC4)c4ccccc34)n2)CC1`: “log2 LFQ intensity” 21.6 and 19.3 and 19.7 and 22.5 (ACSL3 (Homo sapiens, UniProt O95573); kinobead competition pulldown; HEK293/HCT116 lysate mixture; 10 µM, 1 h, 4 °C; lower = stronger competition).
With `COC(=O)[C@@]1(Cc2ccccc2)C=C(C(=O)OC(C)(C)C)C(=O)CC1` the fraction bound was 0.0328 (MAPK14 (Homo sapiens, UniProt Q16539, C119V); peptide binding, fluorescence polarization; 500 µM).
The kinact/KI of `CC(=O)N[C@@H](CC(C)C)C(=O)N[C@@H](CCC(=O)O)C(=O)N[C@H](C(=O)N[C@@H](CC(=O)O)C(=O)COC(=O)c1c(C)cccc1C)[C@@H](C)O` is reported as 307000 M⁻¹ s⁻¹ (CASP10; enzyme activity, inhibitor).
The remaining activity of `COC(=O)[C@@]1(C)C=C(C(=O)Nc2cccc(C(=O)Nc3ccc(Nc4nccc(-c5cccnc5)n4)c(C)c3)c2)C(=O)CC1` is reported as 88% (human PDGFR; 33PanQinase; 1 µM; reference: control).
`N#Cc1cnc2sc(C(=O)O)cc2c1N1CCc2[nH]nc(C(=O)N[C@@H](CC(=O)NCCOCCN3CCOCC3)c3cccc(Br)c3)c2C1` gave a remaining activity of 95.3% (Interleukin-1 receptor-like 2 (IL1RL2, Homo sapiens, UniProt Q9HB29); reporter gene (SEAP), inhibitor, HEK-Blue IL-36R reporter; HEK-Blue IL-36R cells; 0.046 µM, 6 h, together with: IL36A 0.01 ng/mL).
With `O=C1c2sc(-c3ccc(N4CCC(CO)CC4)nc3F)nc2CCN1c1cccnc1` the specific binding was 0.258 nM and 0.154 nM and 0.23 nM (TAR DNA-binding protein 43, aggregated (TARDBP, Homo sapiens, UniProt Q13148); radioligand binding; human, FTLD-TDP type C sarkosyl-insoluble extract; 18.97 nM).
`CC1(C)C[C@@H](Nc2cccc(-c3sc(C(=O)O)c(OCC(=O)O)c3Cl)c2)CCN1S(=O)(=O)Cc1cccc(NC(=O)CN2CCC(c3ccc4c(c3)oc(=O)n4C3CCC(=O)NC3=O)CC2)c1` (some centres unmarked) has a remaining protein of 4.3% and 2.5% (Tyrosine-protein phosphatase non-receptor type 1 (Mus musculus, UniProt P35821); degrader, Western blot; B16-F10; 10 µM).
With `CC(=O)N[C@H](C(=O)N[C@@H](CCCCN)C(=O)N[C@@H](CCC(N)=O)C(=O)N[C@@H](CC(=O)O)C(=O)COC(=O)c1c(C)cccc1C)C(C)C` the kinact/KI was 55000 M⁻¹ s⁻¹ (CASP10; enzyme activity, inhibitor).
For `CCCCCCCCCCCCC/C=C/C=O`, “isoTOP-ABPP competition ratio” read 1.1 (Enoyl-CoA delta isomerase 2 (ECI2, Homo sapiens, UniProt O75521); competitive isoTOP-ABPP, item: PECI cysteine peptide; proteome, soluble, MDA-MB-231; 100 µM, together with: iodoacetamide probe; reference: DMSO over compound-treated, higher = stronger cysteine blockade).
With `CC[C@H](C)[C@H](NC(=O)[C@@H](NC(=O)[C@H](CCCCN)NC(=O)[C@@H](N)[C@@H](C)O)C(C)C)C(=O)N[C@@H](CC(C)C)C(=O)N[C@@H](Cc1c[nH]cn1)C(N)=O` the ThT fluorescence was 80 ± 8% (MAPT (Homo sapiens, UniProt P10636); fibril formation, ThT fluorescence; 5-fold of tau, at plateau, together with: wild-type tau 10 µM, heparin; reference: untreated).
For `C[n+]1cn([C@@H]2O[C@H](COP(=O)(O)OP(=O)([O-])OP(=O)(O)O)[C@@H](O)[C@H]2O)c2nc(N)nc(O)c21`, the hydrolysis was 77.6 ± 1.6% (DCPS (Homo sapiens, UniProt Q96C86); substrate, HPLC; concentration not given, 120 min).
With `Cc1cn(CC(=O)N(CCNC(=O)CN(CCNC(=O)CN(CCNC(=O)CN(CCNC(=O)CN(CCNC(=O)CN(CCNC(=O)CN(CCNC(=O)CN(CCN)C(=O)Cn2cnc3c(=O)[nH]c(N)nc32)C(=O)Cn2cnc3c(N)ncnc32)C(=O)Cn2cc(C)c(=O)[nH]c2=O)C(=O)Cn2cnc3c(=O)[nH]c(N)nc32)C(=O)Cn2cc(C)c(=O)[nH]c2=O)C(=O)Cn2cnc3c(=O)[nH]c(N)nc32)C(=O)Cn2cnc3c(N)ncnc32)CC(=O)NCCN(CC(=O)NCCOCCOCC(N)=O)C(=O)Cn2cnc3c(N)ncnc32)c(=O)[nH]c1=O` the ΔH was -70.6 ± 0.8 kcal/mol (complementary DNA; duplex formation, UV melting curve fit; PBS; 1 µM).
`CC(=O)N[C@@H](Cc1ccc(C)cc1)C(=O)N[C@@H](CCCC(=O)O)C(=O)N[C@H](C(=O)N[C@@H](CC(=O)O)C(=O)COC(=O)c1c(C)cccc1C)C(C)(C)C` has a kinact/KI of 167000 M⁻¹ s⁻¹ (Caspase-8 (CASP8, Homo sapiens, UniProt Q14790); enzyme activity, inhibitor).
For `O=c1cc(Cn2ccnc2)c2cc3c(cc2o1)CCC3`, the agonist activity was 21.7 ± 8.24% (ADRA1A (Homo sapiens, UniProt P35348); intracellular Ca2+ mobilization, agonist; COS-7; 500 µM; reference: 3 µM ionomycin).
With `CCC[C@H](NC(=O)[C@H](CC(=O)O)NC(C)=O)C(=O)N1[C@H](C(=O)N[C@@H](CC(=O)O)C(=O)COC(=O)c2c(C)cccc2C)C[C@@H]2CCCC[C@@H]21` the kinact/KI was 165000 M⁻¹ s⁻¹ (CASP10; enzyme activity, inhibitor).
Under “change in Emax”, `CC[C@H](C)[C@@H]1NC(=O)[C@H](Cc2ccccc2)NC(=O)[C@H](CCC(=O)O)NC(=O)[C@H](CCCNC(=N)N)NC(=O)CNC(=O)[C@@H](NC(=O)[C@H](CC(C)C)NC(=O)[C@H](CCCNC(=N)N)NC(=O)[C@@H](NC(=O)CNC(=O)[C@H](Cc2ccc(O)cc2)NC(=O)[C@@H]2CCCN2C(=O)[C@H](C)NC(=O)[C@H](C)NC(=O)[C@@H](N)CCCNC(=N)N)C(C)C)CSSC[C@@H]2NC(=O)[C@@H](NC(=O)[C@H](CO)NC(=O)[C@H](CO)NC(=O)[C@H](CO)NC(=O)[C@H](CC(C)C)NC(=O)CNC(=O)[C@H](C)NC(=O)[C@H](CC(C)C)NC(=O)[C@@H](NC(=O)[C@@H](N)CC(=O)O)C(C)C)CSSC[C@H](NC(=O)CNC(=O)[C@H](Cc3c[nH]c4ccccc34)NC(=O)[C@H](CCCCN)NC2=O)C(=O)N[C@@H](CO)C(=O)N[C@@H](CCCCN)C(=O)N[C@@H](CO)C(=O)N[C@@H](CCC(=O)O)C(=O)N[C@@H]([C@@H](C)CC)C(=O)N[C@@H](CO)C(=O)N[C@@H](CO)C(=O)N[C@@H](CC(C)C)C(=O)N[C@H](C(=O)O)CSSC[C@@H](C(=O)NCC(=O)NCC(=O)N[C@@H](CO)C(=O)N[C@@H](CCCNC(=N)N)C(=O)N[C@@H](Cc2c[nH]c3ccccc23)C(=O)O)NC(=O)[C@H]([C@@H](C)O)NC(=O)[C@H](Cc2ccccc2)NC(=O)[C@H]([C@@H](C)CC)NC(=O)[C@H](C(C)C)NC(=O)[C@H](C)NC(=O)[C@H](CCCNC(=N)N)NC1=O` is recorded as -63.5% and -71% and -63.6% (RXFP4 (Homo sapiens, UniProt Q8TDU9, S101A); S101A mutant; reference: wild type).
The binding stoichiometry of `Cc1cc(=O)oc2cc(NC(=O)CCCCCCCC(=O)NO)ccc12` is reported as 0.8 (HDAC8 (Homo sapiens, UniProt Q9BY41); ITC; Tris-HCl buffer; concentration not given, 298 K).
The kinact/KI of `CC(=O)N1C[C@H](O)C[C@H]1C(=O)N[C@H](C(=O)N[C@@H](CO)C(=O)N[C@@H](CC(=O)O)C(=O)COC(=O)c1c(C)cccc1C)C(C)(C)C` is reported as 260000 M⁻¹ s⁻¹ (CASP10; enzyme activity, inhibitor).
The DHEA metabolism of `COCCOc1cc(-c2coc3cc(O)ccc3c2=O)ccc1Cl` is reported as 1.86 (HSD3B1 (Homo sapiens, UniProt P14060); [3H]-DHEA conversion; LNCaP; 0.1 µM, normalized to protein, unit not given; reference: vehicle).

Repeated from above:
`COc1cc(-c2cn(C)c(=O)c3cnccc23)cc(OC)c1CN(C)C` gave a ΔTm of 0.9 °C (KAT2A (Homo sapiens, UniProt Q92830)).
With `O=C1c2sc(-c3ccc(N4CCC(CO)CC4)nc3F)nc2CCN1c1cccnc1` the specific binding was 0.258 nM and 0.154 nM and 0.23 nM (TAR DNA-binding protein 43, aggregated (TARDBP, Homo sapiens, UniProt Q13148); radioligand binding; human, FTLD-TDP type C sarkosyl-insoluble extract; 18.97 nM).
